Published values gathered from unrelated publications.
Lines come from different studies, so protocols differ. ± marks the error that the study gave. Converted amounts (≈) assume the structure as drawn.
SCTR: Secretin receptor (SCTR, Homo sapiens, UniProt P47872)
Sequence of UniProt P47872 (whole entry, looked up): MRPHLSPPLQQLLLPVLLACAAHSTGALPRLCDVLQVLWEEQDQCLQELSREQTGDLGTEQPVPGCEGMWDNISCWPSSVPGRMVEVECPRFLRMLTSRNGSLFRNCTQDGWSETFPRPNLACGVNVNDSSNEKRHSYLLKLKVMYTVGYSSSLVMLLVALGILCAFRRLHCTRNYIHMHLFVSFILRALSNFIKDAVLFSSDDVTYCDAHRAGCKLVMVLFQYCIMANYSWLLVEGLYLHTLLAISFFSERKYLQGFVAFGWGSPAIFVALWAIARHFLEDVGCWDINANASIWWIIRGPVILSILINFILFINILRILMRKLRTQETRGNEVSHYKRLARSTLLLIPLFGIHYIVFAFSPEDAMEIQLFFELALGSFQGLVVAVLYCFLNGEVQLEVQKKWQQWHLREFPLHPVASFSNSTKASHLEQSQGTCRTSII
NMBR: Neuromedin-B receptor (NMBR, Homo sapiens, UniProt P28336)
Sequence of UniProt P28336 (whole entry, looked up): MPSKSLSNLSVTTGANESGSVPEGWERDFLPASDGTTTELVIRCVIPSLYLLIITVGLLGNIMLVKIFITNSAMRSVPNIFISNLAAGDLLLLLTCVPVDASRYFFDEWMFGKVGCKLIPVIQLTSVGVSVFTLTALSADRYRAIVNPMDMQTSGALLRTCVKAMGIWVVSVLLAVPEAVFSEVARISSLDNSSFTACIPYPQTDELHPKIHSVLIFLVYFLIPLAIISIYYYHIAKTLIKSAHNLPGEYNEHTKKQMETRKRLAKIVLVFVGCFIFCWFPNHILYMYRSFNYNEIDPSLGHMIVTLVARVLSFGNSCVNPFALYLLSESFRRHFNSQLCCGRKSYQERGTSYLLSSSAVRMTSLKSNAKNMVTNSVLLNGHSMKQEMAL
Sequence of UniProt Q61143 (whole entry, unmodified, looked up): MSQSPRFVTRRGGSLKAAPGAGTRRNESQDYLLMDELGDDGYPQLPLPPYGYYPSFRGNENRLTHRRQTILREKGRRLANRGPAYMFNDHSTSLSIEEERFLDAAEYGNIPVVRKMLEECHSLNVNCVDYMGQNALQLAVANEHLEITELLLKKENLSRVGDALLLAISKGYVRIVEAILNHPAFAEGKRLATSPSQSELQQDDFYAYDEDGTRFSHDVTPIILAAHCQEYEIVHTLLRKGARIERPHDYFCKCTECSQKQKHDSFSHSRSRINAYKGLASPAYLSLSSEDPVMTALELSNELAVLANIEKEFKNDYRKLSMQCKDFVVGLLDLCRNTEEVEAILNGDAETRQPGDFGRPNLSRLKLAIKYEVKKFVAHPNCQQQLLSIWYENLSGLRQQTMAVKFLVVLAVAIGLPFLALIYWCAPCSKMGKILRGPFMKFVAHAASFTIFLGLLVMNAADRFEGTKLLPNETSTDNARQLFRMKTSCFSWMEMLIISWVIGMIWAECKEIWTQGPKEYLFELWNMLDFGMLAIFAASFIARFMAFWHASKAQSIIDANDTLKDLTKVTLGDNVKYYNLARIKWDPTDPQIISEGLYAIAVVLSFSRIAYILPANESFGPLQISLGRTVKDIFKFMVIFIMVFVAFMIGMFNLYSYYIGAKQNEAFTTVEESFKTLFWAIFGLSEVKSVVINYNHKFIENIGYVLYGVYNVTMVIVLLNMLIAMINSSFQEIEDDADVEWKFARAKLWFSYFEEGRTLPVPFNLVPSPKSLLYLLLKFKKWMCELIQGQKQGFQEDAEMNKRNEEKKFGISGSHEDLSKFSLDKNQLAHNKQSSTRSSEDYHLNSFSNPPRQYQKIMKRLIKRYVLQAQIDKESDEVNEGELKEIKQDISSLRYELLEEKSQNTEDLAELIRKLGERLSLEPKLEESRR
Sequence of UniProt P21917 (whole entry, looked up): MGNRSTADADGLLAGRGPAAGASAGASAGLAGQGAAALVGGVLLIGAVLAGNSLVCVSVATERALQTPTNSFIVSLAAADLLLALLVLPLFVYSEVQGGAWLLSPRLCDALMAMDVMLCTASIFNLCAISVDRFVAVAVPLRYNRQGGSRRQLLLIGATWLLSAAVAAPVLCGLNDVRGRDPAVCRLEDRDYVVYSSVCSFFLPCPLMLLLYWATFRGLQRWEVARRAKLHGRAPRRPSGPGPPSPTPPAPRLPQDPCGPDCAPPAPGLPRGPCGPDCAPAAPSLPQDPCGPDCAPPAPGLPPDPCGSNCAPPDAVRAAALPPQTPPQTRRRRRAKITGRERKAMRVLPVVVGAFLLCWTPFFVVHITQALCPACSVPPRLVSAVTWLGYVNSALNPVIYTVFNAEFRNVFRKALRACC
Sequence of UniProt P97438 (whole entry, looked up): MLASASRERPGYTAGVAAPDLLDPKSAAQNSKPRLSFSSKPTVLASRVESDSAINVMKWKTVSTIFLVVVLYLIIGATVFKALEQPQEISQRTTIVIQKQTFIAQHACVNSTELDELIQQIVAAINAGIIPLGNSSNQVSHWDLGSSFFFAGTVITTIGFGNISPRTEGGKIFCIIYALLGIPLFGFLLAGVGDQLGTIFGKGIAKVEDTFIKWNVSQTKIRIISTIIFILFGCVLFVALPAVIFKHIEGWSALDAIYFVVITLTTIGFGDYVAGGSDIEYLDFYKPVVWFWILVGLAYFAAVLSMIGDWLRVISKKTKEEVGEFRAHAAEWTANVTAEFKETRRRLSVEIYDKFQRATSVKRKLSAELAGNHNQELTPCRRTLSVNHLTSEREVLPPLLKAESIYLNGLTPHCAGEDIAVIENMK
Sequence of UniProt P14867 (whole entry, looked up): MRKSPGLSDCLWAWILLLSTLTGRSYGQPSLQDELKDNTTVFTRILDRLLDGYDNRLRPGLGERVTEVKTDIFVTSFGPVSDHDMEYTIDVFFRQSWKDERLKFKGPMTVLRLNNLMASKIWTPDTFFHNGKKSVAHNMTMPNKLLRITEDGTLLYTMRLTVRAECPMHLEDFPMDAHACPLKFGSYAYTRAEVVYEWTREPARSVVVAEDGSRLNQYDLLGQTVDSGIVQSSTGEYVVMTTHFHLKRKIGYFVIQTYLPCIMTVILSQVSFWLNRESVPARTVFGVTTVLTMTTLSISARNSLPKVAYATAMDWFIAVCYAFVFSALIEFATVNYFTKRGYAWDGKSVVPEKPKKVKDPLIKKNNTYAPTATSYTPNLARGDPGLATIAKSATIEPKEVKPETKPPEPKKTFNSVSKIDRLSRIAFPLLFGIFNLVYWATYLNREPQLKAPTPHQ
Sequence of UniProt P18507 (whole entry, looked up): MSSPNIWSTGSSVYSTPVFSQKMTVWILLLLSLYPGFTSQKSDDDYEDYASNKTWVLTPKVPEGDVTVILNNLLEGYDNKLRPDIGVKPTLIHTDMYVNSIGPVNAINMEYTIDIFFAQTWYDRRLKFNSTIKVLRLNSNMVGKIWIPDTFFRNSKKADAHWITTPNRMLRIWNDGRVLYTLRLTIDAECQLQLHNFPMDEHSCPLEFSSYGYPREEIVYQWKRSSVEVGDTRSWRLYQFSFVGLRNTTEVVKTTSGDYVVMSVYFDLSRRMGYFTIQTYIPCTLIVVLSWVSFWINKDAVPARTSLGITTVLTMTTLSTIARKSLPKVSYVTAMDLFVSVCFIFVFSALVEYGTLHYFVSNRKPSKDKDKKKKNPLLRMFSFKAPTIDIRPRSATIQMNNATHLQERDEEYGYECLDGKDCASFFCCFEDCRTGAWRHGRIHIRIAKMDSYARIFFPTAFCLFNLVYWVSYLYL
Sequence of UniProt Q9HBW0 (whole entry, looked up): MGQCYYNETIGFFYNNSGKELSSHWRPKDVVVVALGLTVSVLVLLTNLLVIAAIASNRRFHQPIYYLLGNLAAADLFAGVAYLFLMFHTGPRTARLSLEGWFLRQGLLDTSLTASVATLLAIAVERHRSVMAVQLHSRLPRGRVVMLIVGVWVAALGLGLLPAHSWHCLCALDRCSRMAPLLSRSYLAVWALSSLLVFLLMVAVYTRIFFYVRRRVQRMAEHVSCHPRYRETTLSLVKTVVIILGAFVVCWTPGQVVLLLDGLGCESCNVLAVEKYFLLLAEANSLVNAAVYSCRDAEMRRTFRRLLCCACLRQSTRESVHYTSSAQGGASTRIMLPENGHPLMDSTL
Sequence of UniProt P54646 (whole entry, unmodified, looked up): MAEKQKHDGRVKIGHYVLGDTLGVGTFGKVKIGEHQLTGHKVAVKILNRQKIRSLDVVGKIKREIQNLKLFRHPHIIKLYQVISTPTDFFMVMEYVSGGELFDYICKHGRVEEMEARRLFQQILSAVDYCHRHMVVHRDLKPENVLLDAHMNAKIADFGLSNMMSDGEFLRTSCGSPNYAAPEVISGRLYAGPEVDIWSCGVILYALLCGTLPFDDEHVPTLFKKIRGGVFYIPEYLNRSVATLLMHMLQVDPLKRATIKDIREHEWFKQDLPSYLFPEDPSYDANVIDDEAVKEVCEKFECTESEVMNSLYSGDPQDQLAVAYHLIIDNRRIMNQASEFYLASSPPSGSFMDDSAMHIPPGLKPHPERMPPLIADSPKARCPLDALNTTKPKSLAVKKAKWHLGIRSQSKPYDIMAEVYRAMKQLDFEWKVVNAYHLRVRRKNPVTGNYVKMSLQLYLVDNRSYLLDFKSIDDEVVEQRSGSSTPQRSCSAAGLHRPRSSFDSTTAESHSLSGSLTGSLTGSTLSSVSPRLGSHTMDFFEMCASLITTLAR
Sequence of UniProt Q9Y478 (whole entry, unmodified, looked up): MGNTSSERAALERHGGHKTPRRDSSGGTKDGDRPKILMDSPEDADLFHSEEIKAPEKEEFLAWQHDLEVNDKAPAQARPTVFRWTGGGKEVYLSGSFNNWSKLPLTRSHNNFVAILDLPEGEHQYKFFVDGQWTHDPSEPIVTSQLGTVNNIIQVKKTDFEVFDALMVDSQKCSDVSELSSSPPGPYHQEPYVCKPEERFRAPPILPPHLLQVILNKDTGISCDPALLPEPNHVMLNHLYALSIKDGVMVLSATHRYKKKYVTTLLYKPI

`Cc1cc(N/C=C(\C(=O)NC2CCC2)C(=O)c2ccc(Cl)cc2Cl)no1` gave an EC50 of 44 ± 3 nM (GABA-A receptor; alpha-1/beta-2/gamma-2 (Homo sapiens, UniProt P14867+P18507+P47870); GABA current potentiation, positive modulator, two-electrode voltage clamp; Xenopus laevis oocytes; 30 s preincubation, added: GABA EC10).
`O=C(c1cc2c(s1)CCCCC2)N1CCC(n2c(=O)[nH]c3ccccc32)CC1` has an EC50 of 270 ± 50 nM (Short transient receptor potential channel 6 (Trpc6, Mus musculus, UniProt Q61143, F640W); channel activation, agonist, whole-cell patch clamp).
For `COc1cc(CCC(C)=O)ccc1O`, the IC50 was > 4000 ng/mL (mAb 3-LD3; antibody binding, indirect competitive ELISA; added: coating antigen hapten 3-OVA).
For `COc1cccc(-c2cc(C(F)(F)F)nc(NCc3ccccc3)n2)c1`, the EC50 was 11000 ± 15000 nM (SCTR; increase of tracer binding, TR-FRET; HEK293 membranes; added: Fluo-Sec 6 nM).
The EC50 of `C[C@H]1CN(C2CC2)C[C@H]1NC(=O)c1cnc2c(F)ccc(F)c2c1` is reported as 130 nM (D(4) dopamine receptor (DRD4, Homo sapiens, UniProt P21917); cAMP, agonist).
`O=C(O)CCn1c2ccc(Cl)cc2c2cc(Cl)ccc21` has an EC50 of 213000 ± 1200 nM (Kcnk2 (Mus musculus, UniProt P97438); potassium current, activator, two-electrode voltage clamp; Xenopus oocytes; holding 0 mV, added: 2 mM external K+).
For `COc1ccc(-c2cc(C(F)(F)F)nc(S(=O)(=O)CCCC(=O)Nc3ccc(F)c(Cl)c3)n2)cc1OC`, the EC50 was 6800 ± 2900 nM (SCTR; increase of tracer binding, TR-FRET; HEK293 membranes; added: Fluo-Sec 6 nM).
`CSCC[C@H](NC(=O)[C@H](CC(C)C)NC(=O)[C@H](Cc1c[nH]cn1)NC(=O)[C@@H](C)NC(=O)[C@@H](NC(=O)[C@H](C)NC(=O)[C@H](Cc1c[nH]c2ccccc12)NC(=O)[C@H](CCC(N)=O)NC(=O)[C@H](CC(N)=O)NC(=O)CNC(=O)[C@H](CC(C)C)NC(=O)[C@H](CCCNC(=N)N)NC(=O)[C@H](CCC(N)=O)NC(=O)[C@@H]1CCC(=O)N1)C(C)C)C(N)=O` gave an EC50 of 7.41 ± 0.2 nM (NMBR; inositol phosphate generation, agonist; NCI-H1299 (NMBR); 45 min, 37 °C).
`COc1ccc(-c2cc(C(F)(F)F)nc(NCc3ccccc3)n2)cc1` gave an EC50 of 39000 nM (SCTR; cAMP, agonist).
With `Cc1ccc(Oc2nc3cc(-c4ccc5c(ccn5C)c4)c(Cl)cc3[nH]2)cc1C(=O)O` the EC50 was 120 nM (PRKAA2/PRKAB1, with gamma1 subunit (Homo sapiens, UniProt P54646+Q9Y478, L166E); activator).
With `COc1ccc(-c2cc(C(F)(F)F)nc(NCc3ccc(Cl)cc3)n2)cc1OC` the EC50 was 37000 nM (SCTR; cAMP, agonist).
`O=C(N/N=C/c1cccc(O)c1O)c1cccc(Br)c1` gave an EC50 of 5920 ± 210 nM (Potassium voltage-gated channel subfamily KQT member 2 (KCNQ2, Homo sapiens, UniProt O43526); activator; cell-based).
The EC50 of `CC(C)C[C@@H]1NC(=O)[C@H](Cc2c[nH]cn2)NC(=O)[C@@H](C)NC(=O)[C@H](C(C)C)NC(=O)[C@H](C)NC(=O)[C@H](Cc2c[nH]c3ccccc23)NC(=O)[C@H](CCC(N)=O)NC(=O)[C@H](N)CSSC[C@@H](C(N)=O)NC1=O` is reported as 1000 ± 12 nM (NMBR; inositol phosphate generation, agonist; NCI-H1299 expressing human NMBR; 45 min, 37 °C; reference: 1 µM neuromedin B).
With `CCCCCCCC/C=C\CCCCCCCC(=O)OC[C@@H]1OCCC[C@H]1OP(=O)(O)S` (stereo partly shown) the EC50 was 2300 nM (Lysophosphatidic acid receptor 2 (LPAR2, Homo sapiens, UniProt Q9HBW0); G protein activation, agonist).
The IC50 of `CCCCC/C=C/C(=O)CCc1ccc(O)c(OC)c1` is reported as 6.82 ng/mL (≈ 0.0247 µM) (mAb 3-LD3; antibody binding, indirect competitive ELISA; added: coating antigen hapten 2-OVA).
`CCCCOc1nc(N)c2[nH]c(=O)n(CCCN(CCCN3CCOCC3)Cc3cccc(CC(=O)O)c3)c2n1` has an EC50 of > 10000 nM (Toll-like receptor 7 (TLR7, Homo sapiens, UniProt Q9NYK1); reporter gene, agonist).

Repeated from above:
For `COc1ccc(-c2cc(C(F)(F)F)nc(S(=O)(=O)CCCC(=O)Nc3ccc(F)c(Cl)c3)n2)cc1OC`, the EC50 was 6800 ± 2900 nM (SCTR; increase of tracer binding, TR-FRET; HEK293 membranes; added: Fluo-Sec 6 nM).
`CSCC[C@H](NC(=O)[C@H](CC(C)C)NC(=O)[C@H](Cc1c[nH]cn1)NC(=O)[C@@H](C)NC(=O)[C@@H](NC(=O)[C@H](C)NC(=O)[C@H](Cc1c[nH]c2ccccc12)NC(=O)[C@H](CCC(N)=O)NC(=O)[C@H](CC(N)=O)NC(=O)CNC(=O)[C@H](CC(C)C)NC(=O)[C@H](CCCNC(=N)N)NC(=O)[C@H](CCC(N)=O)NC(=O)[C@@H]1CCC(=O)N1)C(C)C)C(N)=O` gave an EC50 of 7.41 ± 0.2 nM (NMBR; inositol phosphate generation, agonist; NCI-H1299 (NMBR); 45 min, 37 °C).
